Measurements from different studies.
Each numbered part is a random draw from the data of one study; scales do not carry over between parts.

Series 1
Target: RING finger protein unkempt homolog, zinc fingers 1-6, GST-SBP tag (UNK, Homo sapiens, UniProt Q9C0B0, residues 30-357)
UniProt Q9C0B0, sequence (30-357, looked up): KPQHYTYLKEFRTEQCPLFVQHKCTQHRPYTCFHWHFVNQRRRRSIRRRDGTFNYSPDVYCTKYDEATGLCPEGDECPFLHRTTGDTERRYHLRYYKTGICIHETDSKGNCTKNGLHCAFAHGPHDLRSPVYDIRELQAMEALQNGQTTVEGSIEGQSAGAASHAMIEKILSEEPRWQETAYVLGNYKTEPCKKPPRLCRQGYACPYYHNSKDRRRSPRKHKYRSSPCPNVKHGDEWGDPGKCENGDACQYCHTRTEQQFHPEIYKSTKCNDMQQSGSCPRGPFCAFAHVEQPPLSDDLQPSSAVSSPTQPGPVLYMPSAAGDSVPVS
Method: RNA Bind-n-Seq
Molecule type: RNA
Sample: in vitro
Tested at: not given
Notes: RNA with constant flanks, human and mouse sites, ends assumed
Relative to: input RNA pool
Reading: higher = stronger binding
Endpoint: bound/input enrichment
Strand = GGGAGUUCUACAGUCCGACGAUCUCCGAACACAAAAUCUUAUUCCUUGGAGCAGGAGAGGCUGCUCUUGGAAUUGCAAAUCUUAUAGUUAUGUCUAUGGUAGAAAAUGGCCUGUCAGAACAAGAGGCACAAAAGAAAAUCUGGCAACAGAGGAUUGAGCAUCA; value = 0.835 ratio
Strand = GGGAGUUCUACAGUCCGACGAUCAAACUCAGAGAGACCUUGACUUUCUUUGAUGAGCUUGAAAACAUCGGCAGAUAUCAAGGAACUAGUAACUUUAGGGAGAGUUUGGCAUCCCUGGUCCAGAGCUGCAGAAAACUUCAGAGCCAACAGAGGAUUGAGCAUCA; value = 0.295 ratio
Strand = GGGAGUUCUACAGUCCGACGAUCGCUGUGUCCUGCCCAGCUGGCUUCAGUUAUAUUUACCUUCUAUCUCCUCCCCACAAAUCUUUCUUUGCCAAAUACCUCUGGUUUUCUCACCUGGAAACAUAUACUGUGUGUAAAAGAGUUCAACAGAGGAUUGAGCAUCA; value = 1.79 ratio
Strand = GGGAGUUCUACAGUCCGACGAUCGACAGCUUUGUAAAAUCCGGAGUCUUCAAUGUAUCAGAGCUUGUGAGAGUAUCCAGAACACCCAUAACCCAGGGAACUGGAGUCAACUUCCCAAUCGGAGAAAUUCCCAGCCAACCAUACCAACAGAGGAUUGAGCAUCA; value = 0.266 ratio
Strand = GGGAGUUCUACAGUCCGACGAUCGCAGUGGAAUGCAGUUAUAUUUGGACCAGAAGGGACACCUUUUGAAGAUGGUACUUUUAAACUAGUAAUAGAAUUUUCUGAAGAAUAUCCAAAUAAACCACCAACUGUUAGGUUUUUAUCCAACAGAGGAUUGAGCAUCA; value = 3.41 ratio
Strand = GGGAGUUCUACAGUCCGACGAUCAGAGAGAGAAAAACUAGUAAAGGCUGAAAGAAAAUUCAUUGAAGAUAGAGUUAAAAAAAUCAUAGAGCUGAAAAAGAAAGUCUGUGGUGACUCAGAUAAAGGAUUUGUCGUUAUUAAUCACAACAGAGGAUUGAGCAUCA; value = 13.5 ratio
Strand = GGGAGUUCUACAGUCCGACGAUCGGCUUUAUUUUGUGCCAUGGGAUCCUAAAUACUGACGCUACAGCACUGAACCUUUGGAAACUAGCUCUUCAAAGUAGCUCUUGCCUCUCUCUCUUUCGGGAUGAAGUUUUCCACAUUCACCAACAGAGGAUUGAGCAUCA; value = 0.181 ratio
Strand = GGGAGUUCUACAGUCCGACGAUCAAAAAUCCAGGAAUCACCUCAGCAGUAAAUAAAAUAAAUAAUAUUGACAAUAUGUACCGAAAUUUCCAAAUGGAAGUGCUAUCUGGAGAGCAGAACAUGAUGACAAAGGUUCGAGAAAACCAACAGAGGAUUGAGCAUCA; value = 0.74 ratio
Strand = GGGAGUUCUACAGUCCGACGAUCUCUUUAAGAAUCUUUGUUUGGCUGUUACUACUUUAUUUCAUGCAAGUUAUAGCAAUUGUCUUAUAUUUGAUGAUGCCUAUUGUGAACAUAAGUGAAGUACUUGGACCCUUGUGCCUUAUGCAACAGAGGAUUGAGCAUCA; value = 0.327 ratio
Strand = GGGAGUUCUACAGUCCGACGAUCGGGAGCAUUGGUGAAAUAGAAUCCUGCAAACUUGUGAGAGACAAAAUUACAGGACAGAGUUUAGGGUAUGGAUUUGUUAACUAUAUUGAUCCAAAGGAUGCAGAGAAAGCCAUCAACACUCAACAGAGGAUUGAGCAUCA; value = 0.423 ratio
Strand = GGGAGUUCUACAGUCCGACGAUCAUUUAGAGGAAUGUACUUUACAAGAUAGAUUGUAUAAGAAGCCAAAUAAUGAAAGCCUAGAAAAAACUAAUUUAUACUUAUCUGAAGGUUACAAAUUAGACUUUUAAAUUUUCUUUGUAGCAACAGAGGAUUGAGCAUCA; value = 59.4 ratio

Series 2
Target: Sal-like protein 4, full length isoform A (SALL4, Homo sapiens, UniProt Q9UJQ4, residues 1-1053)
UniProt Q9UJQ4, sequence (whole entry, looked up): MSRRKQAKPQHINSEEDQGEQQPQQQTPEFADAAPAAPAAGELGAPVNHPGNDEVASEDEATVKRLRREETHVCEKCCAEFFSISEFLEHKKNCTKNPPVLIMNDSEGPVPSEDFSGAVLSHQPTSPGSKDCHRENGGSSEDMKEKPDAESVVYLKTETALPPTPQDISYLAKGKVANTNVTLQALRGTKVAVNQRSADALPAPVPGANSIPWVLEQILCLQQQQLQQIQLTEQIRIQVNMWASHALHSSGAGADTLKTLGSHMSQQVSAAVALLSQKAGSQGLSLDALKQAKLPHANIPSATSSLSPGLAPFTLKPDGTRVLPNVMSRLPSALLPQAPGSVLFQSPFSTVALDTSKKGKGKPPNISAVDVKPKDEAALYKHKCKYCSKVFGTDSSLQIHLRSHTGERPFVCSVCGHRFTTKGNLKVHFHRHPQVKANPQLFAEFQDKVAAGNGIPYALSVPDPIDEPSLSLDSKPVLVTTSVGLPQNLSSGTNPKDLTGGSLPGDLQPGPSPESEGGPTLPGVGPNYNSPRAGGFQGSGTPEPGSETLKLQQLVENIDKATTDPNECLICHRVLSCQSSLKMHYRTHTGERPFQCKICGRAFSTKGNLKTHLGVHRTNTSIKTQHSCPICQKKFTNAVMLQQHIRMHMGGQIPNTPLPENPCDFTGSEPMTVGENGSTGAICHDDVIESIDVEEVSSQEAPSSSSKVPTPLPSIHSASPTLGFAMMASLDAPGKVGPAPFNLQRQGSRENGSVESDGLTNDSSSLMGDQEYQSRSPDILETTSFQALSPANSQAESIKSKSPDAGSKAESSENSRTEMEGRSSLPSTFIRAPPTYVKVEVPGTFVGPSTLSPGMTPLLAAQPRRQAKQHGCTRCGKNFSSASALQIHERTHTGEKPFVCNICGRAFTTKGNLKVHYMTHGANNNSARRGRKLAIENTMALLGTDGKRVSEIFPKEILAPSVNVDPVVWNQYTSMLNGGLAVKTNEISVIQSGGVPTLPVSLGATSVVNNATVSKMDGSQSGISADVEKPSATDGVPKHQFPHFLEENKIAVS
Method: universal PBM
Molecule type: double-stranded DNA, one strand shown
Sample: in vitro
Tested at: 600 nM
Notes: 8-mer, flanks averaged, mean of replicates
Reading: higher = stronger binding
Endpoint: E-score
Strand = GGCTCAAA; value = -0.117
Strand = GTTTGTCA; value = 0.107
Strand = CCTGGGTC; value = -0.311
Strand = CTTAACAC; value = 0.0778
Strand = CCGATCGG; value = -0.314
Strand = CGTGCTCC; value = -0.28
Strand = CACGCTAA; value = -0.043
Strand = CTCGCCGC; value = -0.327
Strand = TCACCGAA; value = -0.00106
Strand = GATATTGA; value = 0.296
Strand = CTTGTGCC; value = -0.148
Strand = ACCAGCAG; value = -0.219
Strand = AAATTCGA; value = 0.188
Strand = CGTCCAAA; value = 0.0802
Strand = GGTATTTA; value = 0.172
Strand = ACAACAGC; value = -4.5e-05
Strand = ACAGTTGA; value = -0.0755
Strand = GCGGACTA; value = -0.00615
Strand = CTCGCATA; value = 0.0346
Strand = GCCCGAAC; value = -0.184
Strand = CCCACGAA; value = -0.079
Strand = GGAAGTCC; value = -0.204
Strand = ACCCATGC; value = 0.00933
Strand = CCGCTGTA; value = 0.00368
Strand = GAGGAAGC; value = -0.221

Series 3
Target: Interferon regulatory factor 3, full length, phosphomimetic (IRF3, Homo sapiens, UniProt Q14653, residues 1-427, S386D/S396D/S398D/S402D/T404D/S405D)
UniProt Q14653, sequence (whole entry, unmodified, looked up): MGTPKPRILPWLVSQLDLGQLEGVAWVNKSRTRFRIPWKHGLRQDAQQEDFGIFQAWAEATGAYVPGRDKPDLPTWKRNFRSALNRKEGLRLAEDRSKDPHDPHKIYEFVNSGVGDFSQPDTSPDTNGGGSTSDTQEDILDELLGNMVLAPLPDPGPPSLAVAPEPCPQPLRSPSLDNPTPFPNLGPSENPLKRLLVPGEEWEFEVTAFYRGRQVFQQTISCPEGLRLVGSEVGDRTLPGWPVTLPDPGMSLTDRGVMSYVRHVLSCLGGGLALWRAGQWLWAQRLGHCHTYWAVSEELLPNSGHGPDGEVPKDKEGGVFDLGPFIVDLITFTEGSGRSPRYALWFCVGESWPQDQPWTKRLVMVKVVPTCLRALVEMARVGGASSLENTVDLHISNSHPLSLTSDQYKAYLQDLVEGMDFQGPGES
Method: protein-binding microarray
Molecule type: double-stranded DNA, one strand shown
Sample: in vitro
Tested at: 2540 nM top
Notes: 60-bp whole probe
Together with: salmon DNA 0.4 mg/ml
Relative to: random background probes
Reading: higher = stronger binding
Endpoint: fitted relative affinity
Constant ends, left off below: GCCTAGCAC … GTCTTGATTCGCTTGACGCTGCTG
Strand = TTAGATTTCGGGACTGGATTTGTGCTA; value = 1.39 z-score
Strand = TTAGGTTTCCTTGTCCTTTAGTGCTAG; value = 5.11 z-score
Strand = GACGGACTGCTTATCCCGACGTGCTAG; value = -0.226 z-score
Strand = TTAGATATCAGACTGGGTTAGTGCTAG; value = 0.0464 z-score
Strand = TCATTTTCAATTTTTGCACTGTGCTAG; value = 2.79 z-score
Strand = TTAGAACTGGGGACTAGATTAGTGCTA; value = -0.746 z-score
Strand = TTAGGCATCGGACTGGGTTAGTGCTAG; value = -0.926 z-score
Strand = TAAATTTTGATGGAGAGTGCGTGCTAG; value = -0.427 z-score
Strand = ACATTTTTTTCATTATTGTTGTGCTAG; value = 1.37 z-score
Strand = GACGGGTTCCTTTCCCTGACGTGCTAG; value = 4.31 z-score
Strand = TTAGATACCGGGACTGGATTAGTGCTA; value = -0.287 z-score
Strand = TTAGGTTTCCTTTCCCTTTAGTGCTAG; value = 10.7 z-score
Strand = CACGGTATCCTTATCCTGACGTGCTAG; value = 4.86 z-score
Strand = GACGAATTCGGGACTGGAGACGTGCTA; value = 0.369 z-score
Strand = GACGGTATCGGGACTGGGTACGTGCTA; value = 1.82 z-score
Strand = TCATTTTTATCAAATGTGACTGTGCTA; value = 1.31 z-score
Strand = GACGATATCCGTTTCGAGACGTGCTAG; value = 3.93 z-score
Strand = GACGGTATCCTTATCCTGCCGTGCTAG; value = 5.14 z-score

Series 4
Target: Ras GTPase-activating protein-binding protein 1, RRM domain (G3BP1, Homo sapiens, UniProt Q13283)
UniProt Q13283, sequence (whole entry, looked up): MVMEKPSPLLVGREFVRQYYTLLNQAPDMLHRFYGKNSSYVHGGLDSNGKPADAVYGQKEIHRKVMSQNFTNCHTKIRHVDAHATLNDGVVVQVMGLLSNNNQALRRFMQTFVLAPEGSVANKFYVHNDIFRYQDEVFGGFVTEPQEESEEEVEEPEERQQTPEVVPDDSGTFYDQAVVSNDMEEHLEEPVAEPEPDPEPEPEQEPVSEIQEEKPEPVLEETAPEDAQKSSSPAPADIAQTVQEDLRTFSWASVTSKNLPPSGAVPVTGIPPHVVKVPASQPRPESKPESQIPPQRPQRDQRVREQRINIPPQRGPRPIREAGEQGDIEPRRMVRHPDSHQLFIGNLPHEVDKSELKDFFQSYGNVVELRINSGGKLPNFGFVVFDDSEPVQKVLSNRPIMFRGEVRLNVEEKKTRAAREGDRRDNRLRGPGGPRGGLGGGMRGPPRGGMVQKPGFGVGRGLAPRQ
Method: RNA Bind-n-Seq
Molecule type: RNA
Sample: in vitro
Tested at: 1 µM
Notes: whole 134-nt RNA, ends assumed
Together with: 150 mM KCl
Relative to: input library
Reading: higher = stronger binding
Endpoint: log2 enrichment
Strand = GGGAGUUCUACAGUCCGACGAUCGCAGGAAGUAAAAACAAAUGGAAAUGCUUCGGAUAGUGGCAGGGGUGGGGGUUGCUAAGGAAAGGGUGGGAUGGAAAUGGGUAAAGAGUUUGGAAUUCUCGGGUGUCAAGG; value = 1.17
Strand = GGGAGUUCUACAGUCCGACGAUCAAGAUUUAGAGAUGAAUUAAAUUUAAUUAGGGGUUGCUAAGAAGCGAGCACUGACCAGAUAAGAAUGCUGGUUUUCCUAAAUGCAGUGAAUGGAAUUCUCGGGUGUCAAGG; value = -0.134
Strand = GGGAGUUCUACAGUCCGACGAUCAGUCCUGUGCUACACAUCGUAUGUACCGAAUCGGGAAAGGGUUUUUUUGGGAAAGGGAAAGUAUUAUGUUACGCCGUUCGGAUCUGCACUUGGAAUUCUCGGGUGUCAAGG; value = 0.389
Strand = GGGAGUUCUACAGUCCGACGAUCCUCAAGUCCUGUGCUACACAUCGUAUGUACCGAAUCGGUUUUUGGAGGUUUGGAAAGUAUUAUGUUACGCCGUUCGGAUCUGCACUUCCAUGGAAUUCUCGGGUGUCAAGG; value = -0.285
Strand = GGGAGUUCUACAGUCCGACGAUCCCUCAAGUCCUGUGCUACACAUCGUAUGUACCGAAUCGGAAAGGAGGUUUGGAAAGUAUUAUGUUACGCCGUUCGGAUCUGCACUUCCAGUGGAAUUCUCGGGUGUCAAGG; value = -0.255
Strand = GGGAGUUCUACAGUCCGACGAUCAAGUCCUGUGCUACACAUCGUAUGUACCGAAUCAAACCCAAAUUUUUAAAUUUAAAAAAGUAUUAUGUUACGCCGUUCGGAUCUGCACUUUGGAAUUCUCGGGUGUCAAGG; value = -0.508
Strand = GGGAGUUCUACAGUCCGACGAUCCUGUGCUACACAUCGUAUGUACCGAAUCGGGGAAAGGGGUUUUUUUGGGGUUUUUUUGGGGAAAGUAUUAUGUUACGCCGUUCGGAUCUGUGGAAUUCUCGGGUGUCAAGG; value = 0.614
Strand = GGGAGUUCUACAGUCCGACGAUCUCCUGUGCUACACAUCGUAUGUACCGAAUCAAACCCCCCCAAAUUUAAACCCCCCCAAAAAAGUAUUAUGUUACGCCGUUCGGAUCUGCAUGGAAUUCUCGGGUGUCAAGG; value = 0.98
Strand = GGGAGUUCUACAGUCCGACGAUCUAACUUUAGAGGAGGAUCUGAUGGAUAUGGCAGUGGACGUGGAUUUGGGGAUGGCUCUAAUGGGUAUGGAGGAGGACCUGGAGGUGGCAAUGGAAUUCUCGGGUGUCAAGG; value = -0.808
Strand = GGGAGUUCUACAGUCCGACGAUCACCAUGCAGGUGGGCAUCUUUGGGAAGUGGGGCAAGGAAAGGAUAGGGAGGGGGGUAACACUUUGGGAACAGGUGGUCCCAGGUCGUUUCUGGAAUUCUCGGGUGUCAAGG; value = -0.336

Excerpt of the above (series 2):
Strand = CTTGTGCC; value = -0.148
Strand = ACCAGCAG; value = -0.219
Strand = AAATTCGA; value = 0.188
Strand = CGTCCAAA; value = 0.0802
Strand = GGTATTTA; value = 0.172
Strand = ACAACAGC; value = -4.5e-05
Strand = ACAGTTGA; value = -0.0755
